Experimental data of several laboratories.
Each numbered part is a random draw from the data of one study; scales do not carry over between parts.

Sample 1 — technique: aptamer microarray, sandwich; form: DNA with 2'F-ANA; medium: in vitro; concentration: 200 nM; with: Cy3 exosite-II aptamer, 400 nM; reading: higher = stronger binding; quantity: mean fluorescence intensity; sequence: GGTTGGTGTGGTTGG
Target: Prothrombin, mature alpha-thrombin (F2, Homo sapiens, UniProt P00734)
Setting: whole 15-mer aptamer, many near background
Modification = 2'F-ANA at 1 6 8 9 11 14 15; result = 56.7 a.u.
Modification = 2'F-ANA at 2 3 5 6 8 11 12 13 15; result = 126 a.u.
Modification = 2'F-ANA at 4 6 10 12 13 14 15; result = 55.2 a.u.
Modification = 2'F-ANA at 1 2 5 8 9 10 11 13 14; result = 49.4 a.u.
Modification = 2'F-ANA at 1 2 4 5 6 7 8 10 12; result = 53.7 a.u.
Modification = 2'F-ANA at 4 5 7 10 13; result = 45.4 a.u.
Modification = 2'F-ANA at 1 4 5 8 9 10 14 15; result = 72.2 a.u.
Modification = 2'F-ANA at 1 2 3 6 10 11 12 14 15; result = 50.8 a.u.
Modification = 2'F-ANA at 2 3 5 7 13 14; result = 58.5 a.u.
Modification = 2'F-ANA at 6 7 8 11 13 14; result = 184 a.u.
Modification = 2'F-ANA at 5 6 8 9 14; result = 44.3 a.u.
Modification = 2'F-ANA at 4 6 8 9 15; result = 269 a.u.
Modification = 2'F-ANA at 1 2 3 4 8 9 10 11 13 14; result = 57.8 a.u.
Modification = 2'F-ANA at 1 2 3 9 11 13; result = 188 a.u.
Modification = 2'F-ANA at 3 4 8 10 12 15; result = 375 a.u.
Modification = 2'F-ANA at 1 2 3 5 6 7 9 10 11 14 15; result = 51.7 a.u.
Modification = 2'F-ANA at 6 7 9 13; result = 349 a.u.
Modification = 2'F-ANA at 2 3 4 8 10 11 12 13; result = 252 a.u.
Modification = 2'F-ANA at 1 4 5 13; result = 64 a.u.
Modification = 2'F-ANA at 1 2 4 6 8 10 12 15; result = 54.9 a.u.
Modification = 2'F-ANA at 6 7 8 10 12 14; result = 144 a.u.
Modification = 2'F-ANA at 2 6 7 9 14; result = 127 a.u.

Sample 2 — technique: protein binding microarray; form: double-stranded DNA, one strand shown; medium: in vitro; concentration: not given; reference: not given; reading: higher = stronger binding; quantity: E-score
Target: Histone acetyltransferase KAT6A, winged helix 1, GST fusion (KAT6A, Homo sapiens, UniProt Q92794, residues 1-85)
Setting: 8-mer, flanks averaged, mean of 2 arrays, mostly near background
Target sequence (chain): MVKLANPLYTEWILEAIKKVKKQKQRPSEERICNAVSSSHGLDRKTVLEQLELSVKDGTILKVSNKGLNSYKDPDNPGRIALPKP
Sequence = GCAGCGAC; result = 0.219
Sequence = CAGTTGTA; result = -0.0174
Sequence = GGAGTAAA; result = -0.113
Sequence = ACCGGCAC; result = 0.283
Sequence = CACAATTC; result = -0.118
Sequence = GTTTTTTA; result = -0.0549
Sequence = ACTTGGTG; result = -0.226
Sequence = GAACAGGC; result = 0.0101
Sequence = GGCGGGAC; result = 0.375
Sequence = CGTTGGAG; result = 0.0396
Sequence = CGGTGGCA; result = 0.00127
Sequence = CTTCTAGC; result = -0.0674
Sequence = CAAAGCCG; result = 0.269
Sequence = AAGGATGA; result = -0.0955
Sequence = ATTCTTAC; result = -0.037
Sequence = GAAAGAAA; result = -0.105

Sample 3 — technique: RNA Bind-n-Seq; form: RNA; medium: in vitro; concentration: not given; reference: input RNA pool; reading: higher = stronger binding; quantity: bound/input enrichment
Target: RING finger protein unkempt homolog, zinc fingers 1-6, GST-SBP tag (UNK, Homo sapiens, UniProt Q9C0B0, residues 30-357)
Chain of UniProt Q9C0B0 (30-357, looked up): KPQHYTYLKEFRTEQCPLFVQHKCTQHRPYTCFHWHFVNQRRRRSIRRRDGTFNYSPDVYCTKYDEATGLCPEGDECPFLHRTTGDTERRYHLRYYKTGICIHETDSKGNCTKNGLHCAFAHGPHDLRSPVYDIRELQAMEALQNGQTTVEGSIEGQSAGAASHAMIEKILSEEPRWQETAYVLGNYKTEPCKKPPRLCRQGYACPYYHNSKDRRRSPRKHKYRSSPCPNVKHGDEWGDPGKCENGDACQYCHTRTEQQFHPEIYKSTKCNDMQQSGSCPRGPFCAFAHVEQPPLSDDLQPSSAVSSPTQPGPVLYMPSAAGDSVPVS
Setting: RNA with constant flanks, human and mouse sites, ends assumed
Shared flanks, not repeated: GGGAGUUCUACAGUCCGACGAUC … CAACAGAGGAUUGAGCAUCA
Sequence = GUUGUUCUUGUAGUGUUUGUUGCUAUUGUUAGAAAGAUUAUUAGUGAUAUGUGGGGUGUCUUAGCUAAACAACAGACACAUGUAAGAAAACACCAGUUUGAUCAUGGAGAGCUGGUUUAC; result = 9.45 ratio
Sequence = AUGUACCCUCUCAAGCCCAGCUGGUGGUUCUGUGCCUUCCCCUACAGUUUCCUCAUCUUCGUCUACGACGAAAUCCGCAAACUCAUCCUGCGCAGGAACCCAGGGGGUUGGGUGGAGAAG; result = 0.166 ratio
Sequence = GAAGAACACUUGGCAGUAAAGCAUUUUUCUGUUGAAGGACAAUUAGAAUUCCGGGCCCUUCUUUUUGUCCCAAGACGCGCUCCUUUUGAUCUGUUUGAAAACAGAAAGAAAAAGAACAAC; result = 0.127 ratio
Sequence = GGGUCCCGCAGCUGGGCAGGCGGGCGGCCUGAGGGCGCGGAGCCAUGAAGCUGUACAGCCUCAGCGUCCUCUACAAAGGCGAGGCCAAGGUGGUGCUGCUCAAAGCCGCAUACGAUGUGU; result = 0.165 ratio
Sequence = CCCUCUGUCUGUGACACCACCAUUCCUCUGCUGCCACCCUUUCAGGAAGUCUAUGGUUUUUAGUUUAAAUUAAAGGAAUUGUUACUGUGGUGGGAAUAUGAAAUAAAGGAAGAAAAGGCC; result = 1.74 ratio
Sequence = UGAAGGAGUCGCAGAAGCUGCACUACGUUGUGACCGAGGUUCAGGGCCCCAGCAUCACUGUGGAGUUUUCCGACUGCAAAGCUUCUCUCCAGCUCCCCAUGGAGAAGGCCAUUGAAACUG; result = 0.214 ratio
Sequence = AGGAAACAUCUUCUGCAUUUCAAAGUCCUCACUUUGACUUAUUUGGCCUUCAUCUUGGCAUGGAAGGUGGCAGGCAGAAUGGAAAUACUCCCCCCAAACAGAACAGAUAUUCUUGCGUGU; result = 0.255 ratio
Sequence = UAUUUGUCAUAGUUUUUUAAGAAGAGGACCAAACGGAAGUAUCUUAUGGUUUCUUGUUACUCUGGGUUUUAUCAUUAUAUAAGUUAUUGGGUUUUUAACAUUUUUCAACUUAUGUUCUUU; result = 11.5 ratio

Sample 4 — technique: RNA Bind-n-Seq; form: RNA; medium: in vitro; concentration: 365 nM; reference: no-protein control; reading: higher = stronger binding; quantity: RBNS enrichment (R)
Target: RNA binding protein fox-1 homolog 2, RRM domain, GST-SBP tag (RBFOX2, Homo sapiens, UniProt O43251-10, residues 100-194)
Setting: natural RNA segment, single round, ends assumed
Shared flanks, not repeated: GGGAGUUCUACAGUCCGACGAUC … UGGAAUUCUCGGGUGCCAA
Target sequence (chain): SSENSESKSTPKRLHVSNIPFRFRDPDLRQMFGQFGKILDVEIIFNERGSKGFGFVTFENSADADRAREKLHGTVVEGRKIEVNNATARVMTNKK
Sequence = CCAGACCAGUCUUAUAGUAAAUAAGCAGAGUUCUGUGUCAGCUCAUGGCUGAUCUCUCCUCAAAGAGGUGAGUAGAAAAGAGAUUCUUGUUUAAAAGAGUCUAGCAAGAA; result = 0.336
Sequence = UUUGAAUUUAUGAUUAUUUUCCAGAAGAAAUCUUGUAAACCUGUGGAUACUCAUUAAUUCUUUUGUUAAUAUUUAUUUCCAUGAUAGCAUCAUUCCAGCCAGACUUGCUG; result = 0.86
Sequence = UGUGUGUAUUUGUUCACGAGCACAAUAGCUCCCAUGGGGGUCUGCACAUGCAGGUGUCCACCAGCAUAGCCUGCCUGAGAUAGUGUCAUUCCUGGUUCUGGGGAGAAGGG; result = 1.17
Sequence = UGCUUUUACCCUACCCUGUACUAUACAUGAAAAUUCCAGUUAUUAACACACUCAAACUGGUGGAGCUUGUUCACCCUAGGAAGGGGAUUGUAUAUAUGGCAGGCUUCCCU; result = 0.443
Sequence = UUAGCUUGUGCUCAAGUCCUCUUGCUGUGUUUUCAGAAGCACUCACAUGUUCUUUCUUUUCCUGAGUGAAAAGCAAAGGUCCCACGGUGUGUGCUGUGGUGCACCGCCUG; result = 0.249
Sequence = AAGUCUCCUCUGGAAAUGCCAAUCCAUCCUUCCCCCAGCUGCUUCCUCGGGGAGGCCCCUGCCCCCACCCUGCCAGCCCUUCCCAGUCUCAUUAGAGGAAGCUUUCCAAA; result = 0.68
Sequence = CAUCCCACCCACUGCCUCUGAAGAGCUGUAGAGCAACCUGCUUUUGGCAUGGGUGGAUGGAUUUUUAAGUUGGUUUCCCAGUCAAGUUAUAUUUAAUUAAGGGACUAGUU; result = 0.39
Sequence = AAGCAGGUCCAGGCGUUUCUAGAACCCUAGGGUGCACCAUCACUGUCUUUUCAGUGCAGGCUGUAACAACCCACUCAGGAGACAGUGAGAGUGAAAAGGUAUUAAGGAAA; result = 0.305

Some of these lines once more (sample 1):
Modification = 2'F-ANA at 4 6 10 12 13 14 15; result = 55.2 a.u.
Modification = 2'F-ANA at 1 2 5 8 9 10 11 13 14; result = 49.4 a.u.
Modification = 2'F-ANA at 1 2 4 5 6 7 8 10 12; result = 53.7 a.u.
Modification = 2'F-ANA at 4 5 7 10 13; result = 45.4 a.u.
Modification = 2'F-ANA at 1 4 5 8 9 10 14 15; result = 72.2 a.u.
Modification = 2'F-ANA at 1 2 3 6 10 11 12 14 15; result = 50.8 a.u.
Modification = 2'F-ANA at 2 3 5 7 13 14; result = 58.5 a.u.
Modification = 2'F-ANA at 6 7 8 11 13 14; result = 184 a.u.
Modification = 2'F-ANA at 5 6 8 9 14; result = 44.3 a.u.
